Published values pooled from the literature.
Each numbered part is a random draw from the data of one study; scales do not carry over between parts. Positions count from the first letter of the parent shown.

Block 1
Target: BIRC6 UBC core domain (UniProt Q9NR09)
Sequence of UniProt Q9NR09 (whole entry, looked up): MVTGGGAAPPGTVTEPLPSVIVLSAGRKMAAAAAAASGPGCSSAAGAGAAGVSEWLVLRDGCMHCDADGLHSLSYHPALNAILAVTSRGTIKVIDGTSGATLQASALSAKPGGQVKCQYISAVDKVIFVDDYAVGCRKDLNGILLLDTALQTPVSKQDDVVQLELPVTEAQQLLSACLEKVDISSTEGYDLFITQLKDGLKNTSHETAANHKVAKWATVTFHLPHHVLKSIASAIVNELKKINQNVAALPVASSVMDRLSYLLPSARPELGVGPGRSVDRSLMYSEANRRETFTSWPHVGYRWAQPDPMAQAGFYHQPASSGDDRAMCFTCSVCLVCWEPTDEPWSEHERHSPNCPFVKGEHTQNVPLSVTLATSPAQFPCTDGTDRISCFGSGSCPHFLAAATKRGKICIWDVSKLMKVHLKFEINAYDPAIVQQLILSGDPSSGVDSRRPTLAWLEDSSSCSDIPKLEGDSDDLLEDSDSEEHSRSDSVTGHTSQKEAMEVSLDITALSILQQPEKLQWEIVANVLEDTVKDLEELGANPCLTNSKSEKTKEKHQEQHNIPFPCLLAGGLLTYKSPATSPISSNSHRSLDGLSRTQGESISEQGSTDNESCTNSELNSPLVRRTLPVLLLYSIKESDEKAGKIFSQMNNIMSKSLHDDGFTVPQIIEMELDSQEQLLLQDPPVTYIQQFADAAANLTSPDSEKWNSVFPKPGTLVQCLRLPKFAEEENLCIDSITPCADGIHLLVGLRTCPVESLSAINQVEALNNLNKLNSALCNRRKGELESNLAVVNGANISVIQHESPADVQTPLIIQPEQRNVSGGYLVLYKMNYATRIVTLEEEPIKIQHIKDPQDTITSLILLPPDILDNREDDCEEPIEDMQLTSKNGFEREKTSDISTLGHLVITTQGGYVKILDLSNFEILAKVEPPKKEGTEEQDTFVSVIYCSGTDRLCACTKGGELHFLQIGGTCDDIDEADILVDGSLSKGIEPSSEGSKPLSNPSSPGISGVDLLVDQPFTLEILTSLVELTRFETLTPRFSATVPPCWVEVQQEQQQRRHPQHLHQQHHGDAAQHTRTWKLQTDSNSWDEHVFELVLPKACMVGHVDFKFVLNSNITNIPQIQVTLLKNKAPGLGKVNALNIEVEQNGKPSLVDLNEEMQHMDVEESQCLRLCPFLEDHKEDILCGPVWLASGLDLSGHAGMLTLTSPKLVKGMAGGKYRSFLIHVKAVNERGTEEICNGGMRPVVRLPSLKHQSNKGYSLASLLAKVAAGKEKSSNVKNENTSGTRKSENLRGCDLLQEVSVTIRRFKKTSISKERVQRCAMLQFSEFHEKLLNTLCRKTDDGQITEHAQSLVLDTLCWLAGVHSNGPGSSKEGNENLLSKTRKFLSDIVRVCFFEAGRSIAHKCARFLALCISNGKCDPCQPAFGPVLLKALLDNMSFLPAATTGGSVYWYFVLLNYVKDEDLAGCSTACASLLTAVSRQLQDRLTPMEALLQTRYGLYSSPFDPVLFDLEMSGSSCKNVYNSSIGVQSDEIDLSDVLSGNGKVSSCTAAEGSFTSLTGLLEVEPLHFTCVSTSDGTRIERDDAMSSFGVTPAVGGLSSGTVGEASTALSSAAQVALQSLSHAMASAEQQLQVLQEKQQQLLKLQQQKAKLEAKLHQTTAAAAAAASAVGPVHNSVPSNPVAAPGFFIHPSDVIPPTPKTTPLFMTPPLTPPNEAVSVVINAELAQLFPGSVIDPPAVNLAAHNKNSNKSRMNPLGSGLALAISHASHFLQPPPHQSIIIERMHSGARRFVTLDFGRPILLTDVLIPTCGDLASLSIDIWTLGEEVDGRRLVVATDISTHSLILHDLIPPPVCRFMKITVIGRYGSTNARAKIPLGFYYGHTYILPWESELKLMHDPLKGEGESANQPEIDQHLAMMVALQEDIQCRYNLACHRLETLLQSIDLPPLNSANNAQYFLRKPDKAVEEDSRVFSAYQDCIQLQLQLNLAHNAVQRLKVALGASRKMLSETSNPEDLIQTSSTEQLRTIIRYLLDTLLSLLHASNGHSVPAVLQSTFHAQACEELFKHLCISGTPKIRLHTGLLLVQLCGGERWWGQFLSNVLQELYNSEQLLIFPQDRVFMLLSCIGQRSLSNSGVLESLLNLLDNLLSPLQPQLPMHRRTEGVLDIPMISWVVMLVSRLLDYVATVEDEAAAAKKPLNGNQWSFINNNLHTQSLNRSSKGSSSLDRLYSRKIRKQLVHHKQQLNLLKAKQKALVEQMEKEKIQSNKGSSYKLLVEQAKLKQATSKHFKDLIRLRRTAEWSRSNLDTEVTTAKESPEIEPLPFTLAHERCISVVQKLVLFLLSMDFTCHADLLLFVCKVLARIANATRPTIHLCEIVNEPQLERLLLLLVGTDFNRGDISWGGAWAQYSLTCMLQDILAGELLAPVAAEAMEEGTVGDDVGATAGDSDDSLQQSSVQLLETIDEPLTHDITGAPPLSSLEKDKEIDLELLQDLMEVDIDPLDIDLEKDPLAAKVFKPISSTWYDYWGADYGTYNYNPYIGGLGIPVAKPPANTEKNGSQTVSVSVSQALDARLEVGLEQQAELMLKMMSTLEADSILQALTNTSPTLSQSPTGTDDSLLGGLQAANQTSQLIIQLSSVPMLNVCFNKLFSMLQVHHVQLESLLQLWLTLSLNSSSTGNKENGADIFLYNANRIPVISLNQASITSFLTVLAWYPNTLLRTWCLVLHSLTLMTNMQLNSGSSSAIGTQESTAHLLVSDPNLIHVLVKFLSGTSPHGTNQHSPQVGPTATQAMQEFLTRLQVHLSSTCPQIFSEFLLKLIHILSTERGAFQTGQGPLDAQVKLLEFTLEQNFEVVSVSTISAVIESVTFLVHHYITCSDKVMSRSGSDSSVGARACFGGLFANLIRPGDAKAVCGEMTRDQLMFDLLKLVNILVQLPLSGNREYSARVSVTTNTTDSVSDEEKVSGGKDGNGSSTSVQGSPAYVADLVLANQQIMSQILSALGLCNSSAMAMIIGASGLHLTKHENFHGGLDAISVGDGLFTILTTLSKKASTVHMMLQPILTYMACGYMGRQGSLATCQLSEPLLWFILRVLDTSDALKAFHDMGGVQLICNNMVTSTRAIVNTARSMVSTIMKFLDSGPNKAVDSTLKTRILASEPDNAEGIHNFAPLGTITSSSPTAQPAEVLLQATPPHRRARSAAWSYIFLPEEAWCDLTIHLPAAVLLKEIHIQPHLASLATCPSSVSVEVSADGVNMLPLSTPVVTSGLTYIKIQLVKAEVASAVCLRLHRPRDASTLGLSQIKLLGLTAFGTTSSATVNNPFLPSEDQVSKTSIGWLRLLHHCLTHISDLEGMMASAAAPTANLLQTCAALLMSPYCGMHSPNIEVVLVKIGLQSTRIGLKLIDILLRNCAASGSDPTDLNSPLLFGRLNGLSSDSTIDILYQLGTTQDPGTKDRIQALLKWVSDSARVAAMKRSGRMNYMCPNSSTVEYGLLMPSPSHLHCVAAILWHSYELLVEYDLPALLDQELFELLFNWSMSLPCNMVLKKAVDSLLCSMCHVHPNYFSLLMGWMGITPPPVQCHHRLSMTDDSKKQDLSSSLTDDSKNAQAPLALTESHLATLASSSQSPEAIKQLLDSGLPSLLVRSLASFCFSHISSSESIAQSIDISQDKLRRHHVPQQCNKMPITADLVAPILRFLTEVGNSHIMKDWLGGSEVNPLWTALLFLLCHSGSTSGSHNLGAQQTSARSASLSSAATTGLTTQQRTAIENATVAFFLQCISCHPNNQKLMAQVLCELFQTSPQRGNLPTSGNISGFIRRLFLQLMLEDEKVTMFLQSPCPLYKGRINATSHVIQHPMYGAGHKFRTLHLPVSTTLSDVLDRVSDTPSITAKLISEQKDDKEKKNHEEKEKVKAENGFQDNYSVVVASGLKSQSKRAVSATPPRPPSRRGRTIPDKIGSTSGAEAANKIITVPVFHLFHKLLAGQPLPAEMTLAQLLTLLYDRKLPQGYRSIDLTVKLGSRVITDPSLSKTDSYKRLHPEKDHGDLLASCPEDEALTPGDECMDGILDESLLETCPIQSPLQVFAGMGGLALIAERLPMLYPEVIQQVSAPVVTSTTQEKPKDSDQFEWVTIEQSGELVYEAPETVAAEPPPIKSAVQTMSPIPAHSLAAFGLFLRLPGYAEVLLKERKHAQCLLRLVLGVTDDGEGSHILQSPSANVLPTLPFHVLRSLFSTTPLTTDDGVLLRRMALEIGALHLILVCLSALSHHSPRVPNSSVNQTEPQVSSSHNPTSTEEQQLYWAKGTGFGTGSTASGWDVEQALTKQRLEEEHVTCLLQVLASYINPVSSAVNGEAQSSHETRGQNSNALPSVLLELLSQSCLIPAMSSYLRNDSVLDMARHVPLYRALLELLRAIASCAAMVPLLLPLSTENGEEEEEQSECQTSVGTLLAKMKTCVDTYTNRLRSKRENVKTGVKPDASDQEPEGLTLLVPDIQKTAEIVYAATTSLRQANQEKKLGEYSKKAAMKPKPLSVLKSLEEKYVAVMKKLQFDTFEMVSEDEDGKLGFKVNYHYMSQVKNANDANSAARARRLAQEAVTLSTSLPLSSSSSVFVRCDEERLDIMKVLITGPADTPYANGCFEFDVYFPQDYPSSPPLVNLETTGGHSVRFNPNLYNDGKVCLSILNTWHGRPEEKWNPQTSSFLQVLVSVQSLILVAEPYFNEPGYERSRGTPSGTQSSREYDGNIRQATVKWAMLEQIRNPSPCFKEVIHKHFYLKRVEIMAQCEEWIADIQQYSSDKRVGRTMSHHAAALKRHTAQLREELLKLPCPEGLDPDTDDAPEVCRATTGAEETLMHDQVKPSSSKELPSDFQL
Technique: yeast two-hybrid
Sample: yeast
Setting: mostly zero background
Baseline: not given
Reading: higher = stronger interaction
B1: RNF183 RING domain (UniProt Q96D59); chain EQQGRELEAECPVCWNPFNNTFHTPKMLDCCHSFCVECLAHLSLVTPARRRLLCPLCRQPTVLASGQP
B2: RNF122 RING domain (UniProt Q9H9V4); chain AKKLQLYGQTCAVCLEDFKGKDELGVLPCQHAFHRKCLVKWLEVRCVCPMCNKPIASPSEAT
B3: RNF187 RING domain (UniProt Q5TA31); chain ALPAGPAEAACALCQRAPREPVRADCGHRFCRACVVRFWAEEDGPFPCPECADDCWQRAVEP
B4: MYCBP2 RING domain (UniProt O75592); chain TSLKQDADDMCMICFTEALSAAPAIQLDCSHIFHLQCCRRVLENRWLGPRITFGFISCPICKNKINHIVLKD
B5: RNF2 RING domain (UniProt Q99496); chain SPRSLHSELMCPICLDMLKNTMTTKECLHRFCADCIITALRSGNKECPTCRKKLVSKRSLR
B6: MKRN2 RING domain (UniProt Q9H000); chain FAFQASQDKVCSICMEVILEKASASERRFGILSNCNHTYCLSCIRQWRCAKQFENPIIKSCPECRVISEFVIPSV
B7: TRIM54 RING domain (UniProt Q9BYV2); chain SMDNLEKQLICPICLEMFSKPVVILPCQHNLCRKCANDVFQASNPLWQSRGSTTVSSGGRFRCPSCRHEVVLDRHGV
B8: RNF152 RING domain (UniProt Q8N8N0); chain ETLSQDSLLECQICFNYYSPRRRPKLLDCKHTCCSVCLQQMRTSQKDVRCPWCRGVTKLPPGFS
B9: TRIM60 RING domain (UniProt Q495X7); chain ALVNLQEESSCPICLEYLKDPVTINCGHNFCRSCLSVSWKDLDDTFPCPVCRFCFPYKSFRR
B10: DEF8 RING domain (UniProt Q6ZN54); chain AGRLGCSLTEIHTLFAKHIKLDCERCQAKGFVCELCREGDVLFPFDSHTSVCADCSAVFHRDCYYDNSTTCPKCARLSLRK
B11: RNF166 RING domain (UniProt Q96A37); chain GDSGLEAQYTCPICLEVYHRPVAIGSCGHTFCGECLQPCLQVPSPLCPLCRLPFDPKKVDK
B12: TRIM31 RING domain (UniProt Q9BZY9); chain FVNKLQEEVICPICLDILQKPVTIDCGHNFCLKCITQIGETSCGFFKCPLCKTSVRKNAIRF
B13: TRIM37 RING domain (UniProt O94972); chain SVESIAEVFRCFICMEKLRDARLCPHCSKLCCFSCIRRWLTEQRAQCPHCRAPLQLRELVN
Sequence	lacZ reporter activity
YPEEVDDDLICHICLQALLDPLDTPCGHTYCTLCLTNFLVEKDFCPMDRKPLVLQHCKK (LNX1 RING domain (UniProt Q8TBB1))	0
B1 (RNF183 RING domain)	0
B2 (RNF122 RING domain)	0
B3 (RNF187 RING domain)	0
QVQSRTKIEECVVCSDKKAAVLFQPCGHMCACENCANLMKKCVQCRAVVERRVPFI (MIB1 RING domain (UniProt Q86YT6))	0
LDAASGHPLVCPLCHGQYERPCLLDCFHDFCTGCLRGRATDGRLSCPLCQHQTLVKGPSG (Rnf207 RING domain (UniProt Q3V3A7))	0
B4 (MYCBP2 RING domain)	0
B5 (RNF2 RING domain)	0
AEADPLGRFTCPVCLEVYEKPVQVPCGHVFCSACLQECLKPKKPVCGVCRSALAPGVRAV (RNF114 RING domain (UniProt Q9Y508))	0
B6 (MKRN2 RING domain)	0
B7 (TRIM54 RING domain)	0
B8 (RNF152 RING domain)	0
YCEMGSTFQLCKICAENDKDVKIEPCGHLMCTSCLTAWQESDGQGCPFCRCEIKGTEPII (CBLB RING domain (UniProt Q13191))	0
B9 (TRIM60 RING domain)	0
B10 (DEF8 RING domain)	0
B11 (RNF166 RING domain)	0
B12 (TRIM31 RING domain)	0
B13 (TRIM37 RING domain)	0

Block 2
Target: ABI1, truncated, D143A, DHFR fusion (Arabidopsis thaliana)
Technique: DHFR PCA, deep sequencing
Sample: yeast
Setting: methotrexate growth selection, single substitutions
With: (+)-ABA 0.39 µM
Baseline: wild-type fitted maximum
Reading: higher = stronger binding
Starting sequence: PYL1, truncated, DHFR fusion (Arabidopsis thaliana); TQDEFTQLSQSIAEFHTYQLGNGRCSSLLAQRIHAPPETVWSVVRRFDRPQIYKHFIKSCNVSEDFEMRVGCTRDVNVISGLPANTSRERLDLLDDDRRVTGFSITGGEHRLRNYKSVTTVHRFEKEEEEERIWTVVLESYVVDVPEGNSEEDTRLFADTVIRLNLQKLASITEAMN
Change	relative binding score [%]
I162A	6.88
H16P	11.8
V100R	-0.946
I33T	-3.1
D48I	1.12
T101M	75.2
I52T	53.3
I133N	68.1
C72I	12.1
L166Y	-6.2
M68Q	2.33
T154H	-20.7
L94W	12.9
V62L	31.7
W41Q	-7.83
T120L	-4.2
G148W	-18.7
L20P	57.2
D153N	-19.4
L166A	10.4
D65S	22.7
T6A	54.8

Block 3
Target: RNA binding protein fox-1 homolog 2, RRM domain, GST-SBP tag (RBFOX2, Homo sapiens, UniProt O43251-10, residues 100-194)
Technique: RNA Bind-n-Seq
Molecule type: RNA
Sample: in vitro
Concentration: 365 nM
Setting: natural RNA segment, single round, ends assumed
Baseline: no-protein control
Reading: higher = stronger binding
All sequences stand within: GGGAGUUCUACAGUCCGACGAUC … UGGAAUUCUCGGGUGCCAA
Residues (chain): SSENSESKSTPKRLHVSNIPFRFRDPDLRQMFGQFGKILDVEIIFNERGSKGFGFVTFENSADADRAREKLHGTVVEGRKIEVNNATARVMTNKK
Oligonucleotide	RBNS enrichment (R)
GAGAAUCACUUGAACCUAGGAGGCGGAGGUUGCAGUGAGCCAAGAUGGCGCCAUUGCACUCCAGCCUGGGUGACAAGAGUGAAACUCCAUCUCAAAAAAAAAGAAAAGAA	0.326
GCUGUAUUAGAUGCUCACAUUCUUUUGUGUCCAUCUCCCUGGGUAGACUGAACUGUGCUCAGGGAUGAGCUUUGCUCAUUUUUGUAUCCUUCCGUUCUAGCCCAGUAUCC	0.204
GGGAGUGGACACCACAGGAAGACACAGGUUGGAGCAAAACUUGAAUAAUGUCCUUUAUCCUGAUUUGAAAUAAUCACGUCAUCUUUCUGCUGAAUAAAAUUGGUUUGCAA	0.362
GUCAAGCUUCAUGAGUUAAAUUUAACUGUUAGAGAGGAGAAAAGCAUAGCAGUCAUUUGGAACGAUCUCGUGGGGUGGGACUAAGCCAUAAUGAUGUGUCUGGCUCAAGC	1.23
GAAGGAAGGGGAUAGGCAGCUUUGACAGGUGCUGCUUUCAAUUCCUCUGCAACUCCUCCCCCUUUUAUUUCCCCAAUUUAAACAAAGAUUCUGCCAACUGUGGAAACUUC	0.811
CCUGUAAUAGCACUUUGGAACUGUGGGCAAAACCAAAAGGCUAGUGUUUCCAUUUAUUCCAUGUUGGUGUAUGGGGUUGAACUGGAAAAUUCCCUGAGGCAAAACUCACU	0.242
GAGAUCCAUGGUGGGCAGGGCUGUUAGGUCACAGAGCUCUAGAAGCAGCUGGACUUGAACCCACAAUGGCUUGUGUAAAUUCGUAAAUUUCAUGGUUUCUAGGAAAAGCU	0.522
CCCCGUGGGGAAAUAAACUGACUUUGGACUGCUUCAGUUUCUGCCAUCUUCCAUGACUGCUUCUAUUCCUGCCUUCCAUGGCAGUGUCCACAGGAGAUAGGCAAGAAGAU	0.318
UGUUAAAUUAGAAUGAAUUUAUCUUUACCAAAAACCAUGUUGCGUUCAAAGAGGUGAACAUUAAAAUAUAGAGACAGGACAGAAUGUGUUCUUUUCUCCUUUACCAGUCC	1.65
GAUUUCAGUACAUGGAUUUAAAAGGCAACAAUCCAUCACUGGUUUGUGUGUUUUUGGUUAAGUUUCUGGAAGAAUACAAUGCUUUUAUAUUGGAAGUAUAAGUUUUGAGU	0.513
AUCUUGUAGCACCAACUGCUGUAAGGGAAUGCUGCAGACAGUGCUUGGGCGAGUGUGGCGCCAACAAGCCUGAGAUUCAAACGCUUUCCAUUUAAGCAAACCUCUUCUUG	0.658
UCAGUGAGCCUCAUUCCCUAGAGCUGAACCUCCACUGCAGGCCCCAAAUCUGAGAUCACAUGAUCUUUACACUGCUAAUUCAUAAAGAUGCAUAAUACAGAAAGCCUGUG	0.424

Block 4
Target: CCNE2, cyclin fold, Cln2 fusion (human)
Technique: yeast growth competition, sequencing
Sample: yeast
Setting: strong parent motif
Baseline: not given
Reading: higher = stronger binding
Starting sequence: INSM1 docking peptide (human); PKAIRKLHFEDEV
Change	normalised enrichment score
PKIIRKLHFEDEV [A3I]	0.727
PKAIRKLHFEYEV [D11Y]	1.53
PRAIRKLHFEDEV [K2R]	1.61
PKAIRKLHFEKEV [D11K]	1.95
PKAIRKLHFRDEV [E10R]	1.08
PKAIRPLHFEDEV [K6P]	0.0187
PKAIRKLHFEDMV [E12M]	2.28
PKAIRKLHFEDTV [E12T]	2.11
PKAIRKLHPEDEV [F9P]	0.0559
PKAIRKLHCEDEV [F9C]	0.144
PKAIFKLHFEDEV [R5F]	0.391
PKAIRKLHFADEV [E10A]	0.978
PKYIRKLHFEDEV [A3Y]	1.29
PKAIRKLHFEDSV [E12S]	2.35
PKAIRKLHREDEV [F9R]	-0.0357
PKAIRKLHFEFEV [D11F]	1.5
PKAIRKLHQEDEV [F9Q]	0.32
PKAIRKLHYEDEV [F9Y]	0.546

Block 5
Target: Histone acetyltransferase KAT6A, both winged helices, GST fusion (KAT6A, Homo sapiens, UniProt Q92794, residues 1-181)
Technique: protein binding microarray
Molecule type: double-stranded DNA, one strand shown
Sample: in vitro
Concentration: not given
Setting: 8-mer, flanks averaged, mean of 2 arrays, mostly near background
Baseline: not given
Reading: higher = stronger binding
Construct (chain): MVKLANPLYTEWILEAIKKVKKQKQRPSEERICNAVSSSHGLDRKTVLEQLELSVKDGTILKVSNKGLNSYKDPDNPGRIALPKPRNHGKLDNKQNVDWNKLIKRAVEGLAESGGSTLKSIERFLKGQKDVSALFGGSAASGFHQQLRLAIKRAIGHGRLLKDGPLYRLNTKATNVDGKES
Oligonucleotide	E-score
TAGCGCGA	0.291
GGTAAGAC	-0.0212
AGTCCGTG	0.13
CATGTTTC	0.132
AACTCGGA	-0.0248
AACTTCTG	-0.0873
GATCTCAC	0.0189
CCGCACAG	0.139
ACGAGGTC	-0.0581
CAGCGTCG	0.215
CTACCGCA	0.212
ATTTTTTA	-0.0774
CACTTAAC	-0.241
CATGGAAA	-0.153
ATTGGGTC	-0.0584
CCCCAGAA	-0.262
CTTATCAA	-0.143
AAGCTGCA	-0.0395

Repeated from above (block 5):
Oligonucleotide	E-score
ATTGGGTC	-0.0584
ATTTTTTA	-0.0774
CCCCAGAA	-0.262
AGTCCGTG	0.13
AACTCGGA	-0.0248
GGTAAGAC	-0.0212
